# Measurements collected from several papers.
# Numbered parts are unrelated; each lists some results of a single study. Changes are numbered by the printed parent chain.

# Set 1
# Target: ABI1, truncated, D143A, DHFR fusion (Arabidopsis thaliana)
# Technique: DHFR PCA, deep sequencing
# Matrix: yeast
# Setting: methotrexate growth selection, single substitutions
# With: (+)-ABA 0.11 µM
# Reference: wild-type fitted maximum
# Reading: higher = stronger binding
# Starting sequence: PYL1, truncated, DHFR fusion (Arabidopsis thaliana); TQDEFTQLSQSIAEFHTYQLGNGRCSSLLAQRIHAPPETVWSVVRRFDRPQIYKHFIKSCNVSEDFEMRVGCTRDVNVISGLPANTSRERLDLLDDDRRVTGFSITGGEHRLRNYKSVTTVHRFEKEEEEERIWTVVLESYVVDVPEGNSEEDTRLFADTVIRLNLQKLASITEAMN; partner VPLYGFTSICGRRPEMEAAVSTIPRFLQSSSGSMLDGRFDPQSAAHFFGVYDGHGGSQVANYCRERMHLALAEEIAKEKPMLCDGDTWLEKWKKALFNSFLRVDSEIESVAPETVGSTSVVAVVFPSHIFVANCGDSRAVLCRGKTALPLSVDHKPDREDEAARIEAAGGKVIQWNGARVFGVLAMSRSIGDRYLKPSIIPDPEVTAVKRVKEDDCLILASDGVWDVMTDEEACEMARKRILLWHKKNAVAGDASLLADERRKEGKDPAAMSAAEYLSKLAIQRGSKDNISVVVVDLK
Substitution,relative binding score
F47D,-7.42%
Q31M,-1.5%
A30E,2.14%
V62R,2.58%
I57V,22.1%
Q167D,8.59%
L166T,2.38%
V121D,-4.19%
E174M,8.51%
N177K,26.9%
E64I,6.29%
G108C,4.57%

# Set 2
# Target: Histone acetyltransferase KAT6A, winged helix 2, GST fusion (KAT6A, Homo sapiens, UniProt Q92794, residues 85-181)
# Technique: protein binding microarray
# Molecule type: double-stranded DNA, one strand shown
# Matrix: in vitro
# Concentration: not given
# Setting: 8-mer, flanks averaged, mean of 2 arrays, mostly near background
# Reference: not given
# Reading: higher = stronger binding
# Residues (chain): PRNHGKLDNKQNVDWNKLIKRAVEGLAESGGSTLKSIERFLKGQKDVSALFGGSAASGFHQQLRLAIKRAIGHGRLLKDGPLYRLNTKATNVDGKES
Oligonucleotide,E-score
ACACGTGC,-0.106
CGAGCAAA,0.047
GGGTACCC,0.0965
ACCAAGGA,-0.0456
CCTTAGAC,-0.152
GCAACATA,-0.135
CGAAACTA,-0.0401
CAGAGCAA,0.174
AACAGCAT,-0.0245
GCATCGAC,-0.029
GTGACATA,0.0418
CGCTTCCG,0.109
AACATTAT,-0.0697
CTGTGAAA,-0.000695
CAGATAGA,-0.0566
CAACTCGA,-0.0426
CTCACGGA,0.0129
ACACCTAA,-0.161
GACTGGCA,-0.123
GGTCAGAC,0.0122
ACGCAACT,0.1
AACCGACT,-0.0185

# Set 3
# Target: RING finger protein unkempt homolog, zinc fingers 1-6, GST-SBP tag (UNK, Homo sapiens, UniProt Q9C0B0, residues 30-357)
# Technique: RNA Bind-n-Seq
# Molecule type: RNA
# Matrix: in vitro
# Concentration: not given
# Setting: RNA with constant flanks, human and mouse sites, ends assumed
# Reference: input RNA pool
# Reading: higher = stronger binding
# Shared flanks, not repeated: GGGAGUUCUACAGUCCGACGAUC … CAACAGAGGAUUGAGCAUCA
# Target sequence (chain): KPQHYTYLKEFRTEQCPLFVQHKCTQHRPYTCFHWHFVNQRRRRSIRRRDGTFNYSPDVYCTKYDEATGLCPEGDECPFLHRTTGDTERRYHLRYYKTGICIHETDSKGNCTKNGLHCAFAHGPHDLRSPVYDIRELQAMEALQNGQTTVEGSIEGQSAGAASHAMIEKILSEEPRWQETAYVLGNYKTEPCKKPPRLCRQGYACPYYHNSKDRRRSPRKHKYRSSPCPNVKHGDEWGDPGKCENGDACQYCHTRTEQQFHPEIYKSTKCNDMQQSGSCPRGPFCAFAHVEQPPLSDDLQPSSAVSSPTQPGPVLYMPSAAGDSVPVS
Oligonucleotide,bound/input enrichment
CAGGUGGCAGAGGAGCUGGGGCAUCGCCCACCGCUGUAGCCAGCUGCAUAGUUUAAGCCGCUUAGCACAGCAGAAUUUGGAAACACUUAAAAAAGCAAAAGGGUGUACAAUCAUAUUUAC,0.278 ratio
AGAGGAGAUCAGGUGCAUGGUGGAACAGCUGAGCCACACUGAAAAUACCCUGCAGGCUGAGCGUAGCCGGGUUCUCAGCCAGCUAGACGCCUCAGUCAAAGACAGGCAGGCCAUGGAACA,0.147 ratio
UUAUUUGUCUUUAGCAUAUUCAAAAGAAAGCUGCUGAAUGGAAAGUCAAGAUAGAAAUUAUUGCAGAGCUUCGAUAUGAUCUACCAGCAUUAUACAACUUUCAUAAAAAGAAAUCUGUGG,0.406 ratio
AAUCGAAUUACAGCUGCCUCCCAGGAACAUGGCUUAAAGUACCCAGCAUUCAUUGUCAACUUAAUUAAGUGCCAGGUGGAGCUCAACAGGAAAGUUCUUGUGGACCUGGCCAUCUAUGAA,0.152 ratio
CAUGUAUCUGCAGUGCUUGAUGUGGAUUACUCUCCCACUGGGAAGGAGUUUGUGUCUGCUAGUUUCGAUAAAUCUAUUCGAAUCUUUCCUGUAGACAAAAGUCGAAGCAGGGAGGUAUAU,0.387 ratio
AGAUUCAAAGUUGUCAAGGGAUUCAUGGAAGACGAAGGUCGGCAGCGAACCACCAAGUACAUUUCCUGCGUGUUUGCAGAGGAGAGCGACCUAAGCCGGCAGUACCAAAGAGAGAAGGCC,0.16 ratio
CGCUGUCCAGCUCUAGGGUGGCGGACCUGGGGAACCCGGGUCGAGUCUCCAUGGUGCGCGCCUCGGGUGGAAAGCCUGGCGCAGCGGCGGCCUUAGCAGAACCGCAUACAGCCACCUGGG,0.0372 ratio
GCUGCCUCUAUCUUGUUUUUUGUUUUUUCUUCUGGGGGGGGUCUAGAACAGUGCCUGGCACAUAGUAGGCGCUCAAUAAAUACUUGUUUGUUGAAUGUCUCCUCUCUCUUUCCACUCUGG,0.638 ratio
CCAACGGCCUGAGGAGAGCGGGGCACGGGGUCUCUUUAGCUUUUACAAGUUUUAGGAUUUUUUCAAGCAGGGAUCAAUCCCGUGGCCAUUUUUUGUGGUACUUUGGCCUCAAUUCUUCAC,1.22 ratio
UGCCACCGCCGCUGCUGCCGCCGCCGCCGCCGCCGCCGCCGCUGCGACCUCCGCGUUCGGUAGUAGAAUUUGGAAUCCCUGCACCGGGCUAACAAUGAAGCAGAGUUCCAACGUGCCGGC,0.279 ratio
CCUCAGCUUUCUCCAACUGCCCUUUGUCCUCCAGUUUCUUUCUGCUGCCUCUGUCUUGUAUUUGUUUUGUUCUGUUUUCUCAUUGGGGGUAAAUGGUGCCUGGCACAUGGCAGGCACUCA,0.523 ratio

# Set 4
# Target: CCNA2, cyclin fold, Cln2 fusion (human)
# Technique: yeast growth competition, sequencing
# Matrix: yeast
# Setting: weak parent motif
# Reference: not given
# Reading: higher = stronger binding
# Starting sequence: SLBP docking peptide (human); ARYKRKLLINDFG
Substitution,normalised enrichment score
AYYKRKLLINDFG [R2Y],2.08
ARYKRKLLSNDFG [I9S],2.44
ARYIRKLLINDFG [K4I],1.09
ACYKRKLLINDFG [R2C],0.705
ARYKRKLLINDFI [G13I],1.63
ARIKRKLLINDFG [Y3I],1.43
ARYKRKLLINDMG [F12M],0.846
DRYKRKLLINDFG [A1D],1.26
ARYKAKLLINDFG [R5A],1.04
ARYKRKLLIEDFG [N10E],1.35
ARYKRRLLINDFG [K6R],1.09
ARYARKLLINDFG [K4A],0.369
ARCKRKLLINDFG [Y3C],1.44
AREKRKLLINDFG [Y3E],1.02
SRYKRKLLINDFG [A1S],1.27
ATYKRKLLINDFG [R2T],1.87
ARYKRKLLINDPG [F12P],0.888
ARYKRKLLIGDFG [N10G],2.33
ARYKRKLLYNDFG [I9Y],2.16
ARYKRMLLINDFG [K6M],1.12
ARYKRKLEINDFG [L8E],1.49
ARYFRKLLINDFG [K4F],1.85
ARYKTKLLINDFG [R5T],0.527
ARYKRKLLGNDFG [I9G],1.26
QRYKRKLLINDFG [A1Q],-0.0598

# Set 5
# Target: BATF3, bZIP domain (human)
# Technique: DHFR protein complementation
# Matrix: yeast
# Setting: single substitutions, most at no-binding floor
# Reference: wild-type JUN-FOS pair
# Reading: higher = stronger binding
# Starting sequence: JUN, bZIP domain (human); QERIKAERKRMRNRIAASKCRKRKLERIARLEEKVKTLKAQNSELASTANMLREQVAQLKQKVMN; partner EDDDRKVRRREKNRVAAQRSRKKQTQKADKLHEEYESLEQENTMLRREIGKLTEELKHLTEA
Substitution,binding fitness [natural log]
M51Q,0.225
K36Q,0.191
R30V,0.342
T37L,0.276
E32G,0.12
V35H,-0.195
Q55S,0.0319
A49P,-0.834
T37P,-0.326
I28A,0.198
K34R,0.274
V35Q,-0.228
K34V,0.178
L38R,0.0488
A29G,0.174
A46R,0.2
A57Y,0.186
K39L,0.109
K36A,0.267

# A few entries again (set 1):
Substitution,relative binding score
N177K,26.9%
E64I,6.29%
Q167D,8.59%
I57V,22.1%
V62R,2.58%
L166T,2.38%
Q31M,-1.5%
G108C,4.57%
E174M,8.51%
F47D,-7.42%
V121D,-4.19%
A30E,2.14%
